Experimental data from different studies.
Each line is one published result; not all experiments were run side by side. Numbers after ± are the reported error.

SMILES = COc1ccc(-n2c(=O)c(C(=O)C3C(=O)CCCC3=O)nc3c(C)cccc32)cc1; organism = Oryza sativa var. Kinmaze; test = crop injury; setting = paddy water application, 28 days, transplanted at two-leaf stage; measurement = ED20; value = 100 g a.i./10 a
SMILES = CO[C@@H]([C@@H](O)[C@H](O)C(=O)CO)[C@@H](C)O; organism = Anabaena variabilis; test = uptake; setting = 250 µM, 48 h; measurement = depletion from culture supernatant; value = no effect
SMILES = CCCCCc1ccc2c(c1O)C(c1ccc(OC)c(OC)c1OC)OC2=O (stereo not shown); organism = Naegleria fowleri trophozoites; test = AlamarBlue; test system = ATCC 30215; setting = 48 h, 37 °C; how to read = reference: J774A.1 CC50 over IC50 ATCC 30215; measurement = selectivity index; value = ≥ 16.6
SMILES = O=C(O)[C@]1(O)C[C@H](CP(=O)(O)O)[C@@H](O)[C@H](O)C1; organism = Anabaena variabilis; test = uptake; setting = 250 µM, 48 h; measurement = depletion from culture supernatant; value = no effect
SMILES = COc1ccc(-n2c(=O)c(C(=O)C3C(=O)CCCC3=O)nc3c(F)cccc32)cc1; organism = Oryza sativa var. Kinmaze; test = crop injury; setting = paddy water application, 28 days, transplanted at two-leaf stage; measurement = ED20; value = > 100 g a.i./10 a
SMILES = CC(=O)OC(CF)Cn1c([N+](=O)[O-])cnc1C (stereo not shown); organism = Salmonella enterica serovar Typhimurium; test = Ames test; test system = TA100; setting = 72 h; measurement = mutagenic potency; value = 8.98 ± 0.71 revertants/µg
SMILES = CCOc1ccc2cc(-c3nn(CC4CCN(C)CC4)c4ncnc(N)c34)ccc2n1; organism = Wien-I; test = LC-MS/MS; test system = crossbred piglets (Landrace x Large White), infected; setting = oral, 10 mg/kg twice daily, 0 h before dose 1, day 2 post-infection; measurement = plasma concentration; value = 0 nM
SMILES = CCCc1ccc2c(c1O)C(c1ccc(OC)c(OC)c1OC)OC2=O (stereo not shown); organism = Naegleria fowleri trophozoites; test = AlamarBlue; test system = ATCC 30808; setting = 48 h, 37 °C; how to read = reference: J774A.1 CC50 over IC50 ATCC 30808; measurement = selectivity index; value = 1.6
SMILES = CC(=O)OC(CF)Cn1cnc([N+](=O)[O-])c1 (stereo not shown); organism = Salmonella enterica serovar Typhimurium; test = Ames test, Bernstein slope; test system = TA98; measurement = mutagenic potency; value = 0.55 ± 0.08 revertants/µg
SMILES = COc1ccc(C2OC(=O)c3ccc(C(C)C)c(O)c32)cc1OC (stereo not shown); organism = Naegleria fowleri trophozoites; test = AlamarBlue; test system = ATCC 30808; setting = 48 h, 37 °C; how to read = reference: J774A.1 CC50 over IC50 ATCC 30808; measurement = selectivity index; value = ≥ 3.42
SMILES = CC=C1C(OC2OC(CO)C(O)C(O)C2O)OC=C(C(=O)OC)C1CC(=O)OCC1OC(OCCc2ccc(O)cc2)C(O)C(O)C1O (stereo not shown); organism = mouse gut microbiota; test = anaerobic incubation; test system = male Balb/c mice, intestinal contents, anaerobic medium; setting = 10 µg/mL, 15 min; measurement = metabolized fraction; value = 43.8%
SMILES = CC(=O)OC(CCl)Cn1cnc([N+](=O)[O-])c1 (stereo not shown); organism = Salmonella enterica serovar Typhimurium; test = Ames test; test system = TA100; setting = 72 h; measurement = mutagenic potency; value = 6.6 ± 0.63 revertants/µg
SMILES = COc1ccc(C2OC(=O)c3ccc(C(C)C)c(O)c32)c(OC)c1OC (stereo not shown); organism = Naegleria fowleri trophozoites; test = AlamarBlue; test system = ATCC 30808; setting = 48 h, 37 °C; how to read = reference: J774A.1 CC50 over IC50 ATCC 30808; measurement = selectivity index; value = ≥ 1.47

Excerpt of the above:
SMILES = CCOc1ccc2cc(-c3nn(CC4CCN(C)CC4)c4ncnc(N)c34)ccc2n1; organism = Wien-I; test = LC-MS/MS; test system = crossbred piglets (Landrace x Large White), infected; setting = oral, 10 mg/kg twice daily, 0 h before dose 1, day 2 post-infection; measurement = plasma concentration; value = 0 nM
SMILES = CC(=O)OC(CF)Cn1c([N+](=O)[O-])cnc1C (stereo not shown); organism = Salmonella enterica serovar Typhimurium; test = Ames test; test system = TA100; setting = 72 h; measurement = mutagenic potency; value = 8.98 ± 0.71 revertants/µg
